Results pooled from the literature.
Every numbered part comes from another study and shows a few of its results, in no order.
UniProt Q9UK32, sequence (whole entry, looked up): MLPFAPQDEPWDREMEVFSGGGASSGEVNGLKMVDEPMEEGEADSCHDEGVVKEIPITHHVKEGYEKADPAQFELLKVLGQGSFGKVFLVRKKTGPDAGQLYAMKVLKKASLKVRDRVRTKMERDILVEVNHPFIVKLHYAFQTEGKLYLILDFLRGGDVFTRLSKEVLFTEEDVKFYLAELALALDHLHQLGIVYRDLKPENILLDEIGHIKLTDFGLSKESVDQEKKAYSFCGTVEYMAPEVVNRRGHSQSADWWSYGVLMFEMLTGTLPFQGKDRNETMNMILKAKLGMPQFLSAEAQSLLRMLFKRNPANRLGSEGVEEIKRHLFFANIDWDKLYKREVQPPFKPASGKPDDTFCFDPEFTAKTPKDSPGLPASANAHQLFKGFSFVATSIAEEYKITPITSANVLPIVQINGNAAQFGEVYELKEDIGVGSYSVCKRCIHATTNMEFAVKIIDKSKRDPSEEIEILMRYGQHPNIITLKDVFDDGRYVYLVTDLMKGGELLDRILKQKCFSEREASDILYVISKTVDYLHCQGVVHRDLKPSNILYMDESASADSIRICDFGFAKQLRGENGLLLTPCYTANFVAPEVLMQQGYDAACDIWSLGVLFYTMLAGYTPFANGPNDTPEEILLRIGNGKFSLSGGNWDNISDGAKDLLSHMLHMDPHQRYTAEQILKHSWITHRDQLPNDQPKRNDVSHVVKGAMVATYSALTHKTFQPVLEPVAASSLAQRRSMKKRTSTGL
UniProt Q14680, sequence (whole entry, looked up): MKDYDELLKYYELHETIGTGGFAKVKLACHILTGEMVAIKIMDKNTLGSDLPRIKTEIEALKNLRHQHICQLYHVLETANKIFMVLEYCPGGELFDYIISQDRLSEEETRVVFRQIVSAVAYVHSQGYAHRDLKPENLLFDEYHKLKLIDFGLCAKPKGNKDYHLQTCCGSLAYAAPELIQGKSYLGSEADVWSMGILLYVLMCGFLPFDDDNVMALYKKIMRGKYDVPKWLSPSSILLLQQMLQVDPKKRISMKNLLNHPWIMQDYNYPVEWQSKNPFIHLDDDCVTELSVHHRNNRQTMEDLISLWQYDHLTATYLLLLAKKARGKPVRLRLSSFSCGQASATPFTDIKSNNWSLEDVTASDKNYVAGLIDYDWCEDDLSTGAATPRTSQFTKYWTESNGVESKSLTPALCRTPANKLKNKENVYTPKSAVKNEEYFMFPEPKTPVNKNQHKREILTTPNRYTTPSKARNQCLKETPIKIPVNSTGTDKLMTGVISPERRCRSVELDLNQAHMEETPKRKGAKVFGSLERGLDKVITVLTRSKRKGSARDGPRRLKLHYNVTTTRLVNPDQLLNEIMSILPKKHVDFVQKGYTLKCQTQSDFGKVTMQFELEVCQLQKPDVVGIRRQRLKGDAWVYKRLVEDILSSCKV
UniProt Q9Y6R4, sequence (whole entry, looked up): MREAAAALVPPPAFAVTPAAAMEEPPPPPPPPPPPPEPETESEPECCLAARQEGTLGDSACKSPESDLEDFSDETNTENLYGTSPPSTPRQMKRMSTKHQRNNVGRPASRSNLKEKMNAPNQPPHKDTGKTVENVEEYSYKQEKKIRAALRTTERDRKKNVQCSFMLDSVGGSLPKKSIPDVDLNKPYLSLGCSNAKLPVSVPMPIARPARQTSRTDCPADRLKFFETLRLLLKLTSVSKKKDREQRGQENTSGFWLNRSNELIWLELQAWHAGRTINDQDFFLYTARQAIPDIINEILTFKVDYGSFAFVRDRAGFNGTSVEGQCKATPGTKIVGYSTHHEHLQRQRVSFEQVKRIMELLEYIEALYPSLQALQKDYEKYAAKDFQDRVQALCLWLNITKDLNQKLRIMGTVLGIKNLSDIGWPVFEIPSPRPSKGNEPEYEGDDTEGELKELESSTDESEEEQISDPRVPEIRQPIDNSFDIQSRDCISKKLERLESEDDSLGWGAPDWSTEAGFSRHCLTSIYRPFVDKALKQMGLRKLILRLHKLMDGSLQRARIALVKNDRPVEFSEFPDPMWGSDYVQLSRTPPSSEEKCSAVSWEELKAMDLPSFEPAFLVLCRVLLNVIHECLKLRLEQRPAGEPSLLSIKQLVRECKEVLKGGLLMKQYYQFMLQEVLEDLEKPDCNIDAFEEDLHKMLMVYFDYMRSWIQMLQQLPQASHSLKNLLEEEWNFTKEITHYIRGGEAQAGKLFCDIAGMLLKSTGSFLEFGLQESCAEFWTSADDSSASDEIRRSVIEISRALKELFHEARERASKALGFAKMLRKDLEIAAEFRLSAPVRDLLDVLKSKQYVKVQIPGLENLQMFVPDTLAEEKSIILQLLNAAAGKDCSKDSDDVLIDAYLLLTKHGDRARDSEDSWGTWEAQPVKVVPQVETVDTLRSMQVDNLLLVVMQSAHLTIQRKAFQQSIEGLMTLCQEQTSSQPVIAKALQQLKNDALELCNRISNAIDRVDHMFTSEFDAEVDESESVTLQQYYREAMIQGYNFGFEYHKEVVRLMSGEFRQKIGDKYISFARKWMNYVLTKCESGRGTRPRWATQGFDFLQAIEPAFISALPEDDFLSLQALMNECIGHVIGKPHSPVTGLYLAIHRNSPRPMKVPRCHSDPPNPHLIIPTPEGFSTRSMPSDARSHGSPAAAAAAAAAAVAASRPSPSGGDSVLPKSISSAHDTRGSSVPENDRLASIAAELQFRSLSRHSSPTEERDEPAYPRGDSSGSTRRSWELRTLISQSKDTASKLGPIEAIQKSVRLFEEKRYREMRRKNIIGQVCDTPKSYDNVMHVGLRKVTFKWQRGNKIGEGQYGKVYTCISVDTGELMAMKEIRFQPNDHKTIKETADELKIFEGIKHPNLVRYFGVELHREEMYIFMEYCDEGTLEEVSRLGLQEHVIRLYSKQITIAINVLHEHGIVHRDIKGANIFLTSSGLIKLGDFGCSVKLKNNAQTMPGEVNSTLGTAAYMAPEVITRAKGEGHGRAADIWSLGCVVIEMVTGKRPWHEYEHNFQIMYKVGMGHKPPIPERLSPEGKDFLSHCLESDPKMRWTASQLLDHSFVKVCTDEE
UniProt Q13873, sequence (whole entry, looked up): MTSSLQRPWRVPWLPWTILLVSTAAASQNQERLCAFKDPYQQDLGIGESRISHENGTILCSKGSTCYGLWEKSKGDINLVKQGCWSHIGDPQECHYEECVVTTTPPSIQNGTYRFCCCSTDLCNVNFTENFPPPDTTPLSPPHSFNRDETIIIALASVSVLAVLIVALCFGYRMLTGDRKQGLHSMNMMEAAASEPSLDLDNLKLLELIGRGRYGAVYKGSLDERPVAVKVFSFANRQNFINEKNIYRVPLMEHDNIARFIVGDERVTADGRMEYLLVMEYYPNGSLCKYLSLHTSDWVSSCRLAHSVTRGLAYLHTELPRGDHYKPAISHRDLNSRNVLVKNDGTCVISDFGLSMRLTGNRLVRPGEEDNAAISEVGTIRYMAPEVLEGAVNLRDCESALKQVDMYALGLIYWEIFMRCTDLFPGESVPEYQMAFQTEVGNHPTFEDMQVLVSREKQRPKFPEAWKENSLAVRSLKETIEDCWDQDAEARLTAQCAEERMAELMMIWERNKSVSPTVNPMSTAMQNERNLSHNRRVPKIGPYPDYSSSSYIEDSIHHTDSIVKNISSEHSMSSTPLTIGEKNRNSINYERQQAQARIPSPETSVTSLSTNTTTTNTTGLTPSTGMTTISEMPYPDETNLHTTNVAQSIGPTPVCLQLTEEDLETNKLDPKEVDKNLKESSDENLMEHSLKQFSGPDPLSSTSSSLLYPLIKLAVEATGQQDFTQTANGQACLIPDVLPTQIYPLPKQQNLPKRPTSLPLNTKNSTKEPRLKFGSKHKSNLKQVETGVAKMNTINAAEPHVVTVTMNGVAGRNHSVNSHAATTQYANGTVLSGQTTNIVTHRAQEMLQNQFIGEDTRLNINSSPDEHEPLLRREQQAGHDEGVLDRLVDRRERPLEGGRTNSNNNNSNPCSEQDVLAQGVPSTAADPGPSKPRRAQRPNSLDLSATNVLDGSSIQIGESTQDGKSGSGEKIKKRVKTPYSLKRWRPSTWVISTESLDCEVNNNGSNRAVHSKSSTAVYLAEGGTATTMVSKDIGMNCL
UniProt P45985, sequence (whole entry, looked up): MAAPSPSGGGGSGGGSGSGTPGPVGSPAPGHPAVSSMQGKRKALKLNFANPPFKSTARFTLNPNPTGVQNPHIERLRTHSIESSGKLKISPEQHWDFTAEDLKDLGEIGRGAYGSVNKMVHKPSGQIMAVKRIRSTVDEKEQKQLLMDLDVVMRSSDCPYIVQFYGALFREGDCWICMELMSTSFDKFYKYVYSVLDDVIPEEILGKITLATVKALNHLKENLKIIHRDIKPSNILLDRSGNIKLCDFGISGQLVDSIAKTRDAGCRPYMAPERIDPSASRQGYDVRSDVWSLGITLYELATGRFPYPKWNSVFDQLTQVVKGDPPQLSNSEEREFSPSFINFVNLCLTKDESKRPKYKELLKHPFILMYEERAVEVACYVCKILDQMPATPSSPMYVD

Set 1 — observed: cell-free assay; technique: competition with immobilised ligand; tested at: 1 µM
Structure (SMILES): Cc1cc(NC(=O)c2cccc(S(F)(F)(F)(F)F)c2)cc(-n2ccn3nc(-c4cccnc4)cc23)c1
For EGFR (Homo sapiens, UniProt P00533, L858R): remaining binding read 100%.
STK36 (Homo sapiens, UniProt Q9NRP7) — remaining binding: 93.1%.
CDC42BPB (Homo sapiens, UniProt Q9Y5S2) — remaining binding: 100%.
It gave 95.1% for remaining binding (EGFR (Homo sapiens, UniProt P00533, del747-750/T751S)).
Ribosomal protein S6 kinase alpha-6, C-terminal kinase domain (RPS6KA6, Homo sapiens, UniProt Q9UK32) — remaining binding: 100%.
It gave 53.6% for remaining binding (MAP3K4 (Homo sapiens, UniProt Q9Y6R4)).
For Receptor-type tyrosine-protein kinase FLT3, autoinhibited (FLT3, Homo sapiens, UniProt P36888): remaining binding read 100%.
The remaining binding was 95.3% (LIM domain kinase 2 (LIMK2, Homo sapiens, UniProt P53671)).
CHUK (Homo sapiens, UniProt O15111) — remaining binding: 71.1%.
The remaining binding was 64.2% (CDK13 (Homo sapiens, UniProt Q14004)).
For STK10 (Homo sapiens, UniProt O94804): remaining binding read 26.8%.
NEK3 (Homo sapiens, UniProt P51956) — remaining binding: 50.5%.
Non-receptor tyrosine-protein kinase TYK2, JH1 (TYK2, Homo sapiens, UniProt P29597) — remaining binding: 51%.
The remaining binding was 53.9% (STK16 (Homo sapiens, UniProt O75716)).
For SRPK1 (Homo sapiens, UniProt Q96SB4): remaining binding read 100%.
MAP2K4 (Homo sapiens, UniProt P45985) — remaining binding: 76%.
MELK (Homo sapiens, UniProt Q14680) — remaining binding: 100%.
BMPR2 (Homo sapiens, UniProt Q13873) — remaining binding: 59.3%.

Set 2 — target: panel of 300 human kinases; tested at: 0.5 µM; reading: higher = more selective
The Gini score of `Nc1nc(Nc2ccc(S(N)(=O)=O)cc2)nn1C(=O)c1c(F)cccc1F` is reported as 0.59.
For `N#Cc1c(NC(=O)c2cccc3ccccc23)sc2c1CCCC2`, the Gini score was 0.75.
With `CCOc1nc(NC(=O)Cc2cc(OC)ccc2OC)cc(N)c1C#N` the Gini score was 0.73.
The Gini score of `CSc1nc(-c2ccnc(N[C@@H](C)c3ccccc3)c2)c(-c2ccc(F)cc2)[nH]1` (racemic) is reported as 0.63.
`COc1cc2ncnc(Nc3ccc(O)c(Br)c3)c2cc1OC` has a Gini score of 0.63.
For `COc1cc2ncnc(Nc3cccc(Cl)c3)c2cc1OC`, the Gini score was 0.6.
`Nc1ncnc2c1cnn2-c1ccccc1` has a Gini score of 0.55.
For `CCCC(=O)Oc1ccc2[nH]c(C(=O)c3cc4ccccc4[nH]3)cc2c1`, the Gini score was 0.59.
With `O=c1cc(-c2cccc3c2Sc2ccccc2S3)oc(N2CCOCC2)c1` the Gini score was 0.74.

Set 3 — species: mouse; matrix: microsomes or S9; tested at: 2 µM; time: 0.5 h
`N=c1c2c(-c3ccccc3)c(-c3ccccc3)n(Cc3ccccc3)c2ncn1CCO` has a remaining compound of 36.9%.
With `Cc1nc(-c2ccc(NC(=O)c3cscn3)cc2Cl)n[nH]1` the remaining compound was 50.3%.
With `COC(=O)c1nccnc1C1=NC(C)(C(C)C)C(=O)N1` (stereo not shown) the remaining compound was 63.7%.
For `Cc1nc2nc(CCNS(=O)(=O)c3cccs3)cn2nc1C`, the remaining compound was 94.3%.
The remaining compound of `Cn1c(=O)c(O)c(C(=O)NCc2cccc(F)c2)c(=O)n1C` is reported as 96.6%.
`CN1C(=O)OC2(C)CC(C)(C)c3ccccc3C12C` (stereo not shown) gave a remaining compound of 0.415%.
The remaining compound of `CCCC(=O)OC[C@@H](OC(=O)CCC)[C@@H](OC(=O)CCC)[C@H](Cn1c2nc(=O)[nH]c(=O)c-2nc2cc(C)c(C)cc21)OC(=O)CCC` is reported as 0%.
With `CCCN(C(=O)c1cc(S(=O)(=O)N2CCc3ccccc32)cn1C)c1ccccc1OC` the remaining compound was < 1%.

Set 4 — observed: enzyme activity; action: inhibitor; tested at: 10 µM
Target: Calcium/calmodulin-dependent protein kinase type II subunit alpha (CAMK2A, Homo sapiens, UniProt Q9UQM7)
UniProt Q9UQM7, sequence (whole entry, looked up): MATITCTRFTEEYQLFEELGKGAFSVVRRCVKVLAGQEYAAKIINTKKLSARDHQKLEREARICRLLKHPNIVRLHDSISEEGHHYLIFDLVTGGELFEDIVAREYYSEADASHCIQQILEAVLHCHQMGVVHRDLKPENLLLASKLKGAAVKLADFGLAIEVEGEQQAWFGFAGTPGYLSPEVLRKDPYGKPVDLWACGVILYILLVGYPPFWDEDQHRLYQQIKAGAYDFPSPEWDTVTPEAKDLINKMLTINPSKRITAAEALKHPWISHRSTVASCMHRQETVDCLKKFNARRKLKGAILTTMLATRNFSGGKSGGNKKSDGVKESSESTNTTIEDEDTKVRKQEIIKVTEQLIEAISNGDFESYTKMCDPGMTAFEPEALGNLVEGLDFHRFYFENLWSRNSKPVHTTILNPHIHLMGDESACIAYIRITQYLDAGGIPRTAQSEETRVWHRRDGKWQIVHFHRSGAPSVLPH
The inhibition of `COC(=O)C1=CO[C@@H](O[C@@H]2O[C@H](CO[C@@H]3O[C@H](CO)[C@@H](O)[C@H](O)[C@H]3O)[C@@H](O)[C@H](O)[C@H]2O)[C@@H]2C(CO)=CC[C@H]12` is reported as -36%.
The inhibition of `C[C@H](C[C@H](O)[C@@H](O)C(C)(C)O)C1=C2C[C@H](O)[C@H]3[C@@]4(C)CCC(=O)C(C)(C)[C@@H]4CC[C@]3(C)[C@@]2(C)CC1` is reported as -26%.
For `O=C(/C=C/c1ccc(O)c(O)c1)c1ccc(O[C@@H]2O[C@H](CO)[C@@H](O)[C@H](O)[C@H]2O)c(O)c1O`, the inhibition was -4%.
`CCCCC(CC)COC(=O)c1ccccc1C(=O)O` (stereo not shown) gave an inhibition of 2%.
The inhibition of `CCOC(=O)/C=C/c1ccc(O)c(OC)c1` is reported as 11%.
`CCCC(=O)OC[C@@H](OC(=O)CCC)[C@@H](OC(=O)CCC)[C@H](Cn1c2nc(=O)[nH]c(=O)c-2nc2cc(C)c(C)cc21)OC(=O)CCC` gave an inhibition of -11%.
`CC(=O)NC(CC(C)C)C(=O)O` (stereo not shown) has an inhibition of 8%.
For `OC[C@H]1O[C@@](CO)(OC[C@@]2(OC[C@@]3(OC[C@@]4(OC[C@@]5(O[C@H]6O[C@H](CO)[C@@H](O)[C@H](O)[C@H]6O)O[C@H](CO)[C@@H](O)[C@@H]5O)O[C@H](CO)[C@@H](O)[C@@H]4O)O[C@H](CO)[C@@H](O)[C@@H]3O)O[C@H](CO)[C@@H](O)[C@@H]2O)[C@@H](O)[C@@H]1O`, the inhibition was 20%.

Repeated from above (set 1):
The remaining binding was 95.3% (LIM domain kinase 2 (LIMK2, Homo sapiens, UniProt P53671)).
CHUK (Homo sapiens, UniProt O15111) — remaining binding: 71.1%.
The remaining binding was 64.2% (CDK13 (Homo sapiens, UniProt Q14004)).
For STK10 (Homo sapiens, UniProt O94804): remaining binding read 26.8%.
NEK3 (Homo sapiens, UniProt P51956) — remaining binding: 50.5%.
Non-receptor tyrosine-protein kinase TYK2, JH1 (TYK2, Homo sapiens, UniProt P29597) — remaining binding: 51%.
